Assay results gathered from unrelated publications.
Each numbered part is a random draw from the data of one study; scales do not carry over between parts.
Sequence of UniProt Q9UQB9 (whole entry, looked up): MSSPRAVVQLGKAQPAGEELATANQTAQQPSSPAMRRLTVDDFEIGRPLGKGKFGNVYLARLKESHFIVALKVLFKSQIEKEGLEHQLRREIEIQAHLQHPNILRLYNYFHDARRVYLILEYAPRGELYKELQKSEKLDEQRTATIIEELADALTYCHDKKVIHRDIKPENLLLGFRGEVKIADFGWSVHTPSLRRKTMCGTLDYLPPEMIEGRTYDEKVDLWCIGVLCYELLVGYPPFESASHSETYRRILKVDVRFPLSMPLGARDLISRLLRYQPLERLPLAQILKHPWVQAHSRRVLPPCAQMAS
Sequence of UniProt Q15375 (whole entry, looked up): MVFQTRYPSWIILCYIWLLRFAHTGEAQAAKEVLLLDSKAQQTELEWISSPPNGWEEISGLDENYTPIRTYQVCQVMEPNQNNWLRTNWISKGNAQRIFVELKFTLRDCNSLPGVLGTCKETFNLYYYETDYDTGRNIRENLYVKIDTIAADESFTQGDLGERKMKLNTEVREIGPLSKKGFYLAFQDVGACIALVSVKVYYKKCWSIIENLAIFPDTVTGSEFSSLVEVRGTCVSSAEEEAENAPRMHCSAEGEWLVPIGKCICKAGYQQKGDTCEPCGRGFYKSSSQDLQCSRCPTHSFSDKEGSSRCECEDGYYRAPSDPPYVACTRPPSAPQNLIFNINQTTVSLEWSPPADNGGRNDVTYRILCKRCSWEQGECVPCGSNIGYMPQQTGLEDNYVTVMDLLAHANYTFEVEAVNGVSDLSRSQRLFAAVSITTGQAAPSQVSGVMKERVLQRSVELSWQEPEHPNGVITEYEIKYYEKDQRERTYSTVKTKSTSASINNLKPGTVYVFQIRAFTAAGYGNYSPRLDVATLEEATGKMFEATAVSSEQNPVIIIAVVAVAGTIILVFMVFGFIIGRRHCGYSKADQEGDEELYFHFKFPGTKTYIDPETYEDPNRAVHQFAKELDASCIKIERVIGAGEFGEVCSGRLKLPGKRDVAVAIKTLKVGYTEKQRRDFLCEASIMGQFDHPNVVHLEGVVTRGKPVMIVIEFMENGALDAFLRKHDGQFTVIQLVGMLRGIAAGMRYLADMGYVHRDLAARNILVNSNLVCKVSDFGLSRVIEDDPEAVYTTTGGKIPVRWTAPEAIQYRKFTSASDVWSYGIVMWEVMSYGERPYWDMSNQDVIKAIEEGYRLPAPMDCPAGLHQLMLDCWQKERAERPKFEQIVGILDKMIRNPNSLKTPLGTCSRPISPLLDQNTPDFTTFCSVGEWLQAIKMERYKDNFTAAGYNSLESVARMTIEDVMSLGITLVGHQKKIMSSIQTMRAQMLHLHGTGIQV
Sequence of UniProt P07333 (whole entry, looked up): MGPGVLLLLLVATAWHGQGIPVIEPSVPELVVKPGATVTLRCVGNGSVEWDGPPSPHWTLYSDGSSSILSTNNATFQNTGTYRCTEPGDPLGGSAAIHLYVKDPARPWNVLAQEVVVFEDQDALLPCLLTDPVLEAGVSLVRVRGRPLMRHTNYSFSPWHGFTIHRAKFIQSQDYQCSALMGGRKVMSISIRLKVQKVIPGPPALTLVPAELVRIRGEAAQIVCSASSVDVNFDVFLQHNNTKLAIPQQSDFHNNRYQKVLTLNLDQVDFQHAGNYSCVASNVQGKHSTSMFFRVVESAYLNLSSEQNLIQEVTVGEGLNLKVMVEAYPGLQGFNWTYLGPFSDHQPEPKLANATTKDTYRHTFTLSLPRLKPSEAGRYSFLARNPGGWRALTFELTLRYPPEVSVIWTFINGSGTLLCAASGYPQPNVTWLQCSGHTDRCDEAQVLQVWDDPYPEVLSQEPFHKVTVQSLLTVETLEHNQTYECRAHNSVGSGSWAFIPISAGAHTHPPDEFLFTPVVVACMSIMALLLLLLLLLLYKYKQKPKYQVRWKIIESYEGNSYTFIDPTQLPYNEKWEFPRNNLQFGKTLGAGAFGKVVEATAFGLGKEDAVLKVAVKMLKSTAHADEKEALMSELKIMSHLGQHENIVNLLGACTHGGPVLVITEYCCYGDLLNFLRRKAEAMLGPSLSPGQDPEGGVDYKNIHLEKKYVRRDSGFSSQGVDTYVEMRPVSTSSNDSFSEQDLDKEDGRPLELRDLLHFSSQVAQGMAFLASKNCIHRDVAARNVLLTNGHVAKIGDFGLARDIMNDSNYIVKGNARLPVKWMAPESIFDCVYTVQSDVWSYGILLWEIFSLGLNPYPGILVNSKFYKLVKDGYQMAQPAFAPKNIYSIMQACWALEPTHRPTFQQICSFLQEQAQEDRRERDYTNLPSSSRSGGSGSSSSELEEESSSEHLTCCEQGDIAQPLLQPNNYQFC
Sequence of UniProt P23443 (whole entry, looked up): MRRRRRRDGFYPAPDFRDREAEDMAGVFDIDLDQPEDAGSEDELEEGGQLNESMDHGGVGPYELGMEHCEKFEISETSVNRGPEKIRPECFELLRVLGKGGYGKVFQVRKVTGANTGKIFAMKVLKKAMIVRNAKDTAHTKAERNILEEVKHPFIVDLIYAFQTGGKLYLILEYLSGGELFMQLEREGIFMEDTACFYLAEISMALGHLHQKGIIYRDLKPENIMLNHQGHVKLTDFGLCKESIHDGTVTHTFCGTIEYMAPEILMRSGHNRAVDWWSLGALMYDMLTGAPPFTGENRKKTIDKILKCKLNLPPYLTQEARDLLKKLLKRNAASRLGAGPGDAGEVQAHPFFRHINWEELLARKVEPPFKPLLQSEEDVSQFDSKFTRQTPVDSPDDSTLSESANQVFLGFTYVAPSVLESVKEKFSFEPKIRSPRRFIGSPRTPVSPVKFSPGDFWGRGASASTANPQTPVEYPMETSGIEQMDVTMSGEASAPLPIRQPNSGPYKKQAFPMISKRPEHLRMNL
Sequence of UniProt Q13177 (whole entry, looked up): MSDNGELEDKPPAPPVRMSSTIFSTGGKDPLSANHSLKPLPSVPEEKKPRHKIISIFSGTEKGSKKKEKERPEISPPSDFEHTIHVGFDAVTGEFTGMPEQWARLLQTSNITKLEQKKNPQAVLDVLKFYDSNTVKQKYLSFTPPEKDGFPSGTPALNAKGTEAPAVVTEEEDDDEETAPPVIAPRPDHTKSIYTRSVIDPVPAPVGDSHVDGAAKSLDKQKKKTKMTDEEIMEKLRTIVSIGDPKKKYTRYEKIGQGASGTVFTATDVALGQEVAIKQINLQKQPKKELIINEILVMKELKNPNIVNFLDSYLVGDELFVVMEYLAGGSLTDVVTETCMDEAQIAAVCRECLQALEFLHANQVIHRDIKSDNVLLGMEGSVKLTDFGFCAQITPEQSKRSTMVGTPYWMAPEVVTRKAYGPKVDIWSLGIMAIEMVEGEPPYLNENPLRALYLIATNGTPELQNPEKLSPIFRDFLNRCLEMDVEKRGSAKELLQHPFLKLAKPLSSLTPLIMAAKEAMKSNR
Sequence of UniProt P25098 (whole entry, looked up): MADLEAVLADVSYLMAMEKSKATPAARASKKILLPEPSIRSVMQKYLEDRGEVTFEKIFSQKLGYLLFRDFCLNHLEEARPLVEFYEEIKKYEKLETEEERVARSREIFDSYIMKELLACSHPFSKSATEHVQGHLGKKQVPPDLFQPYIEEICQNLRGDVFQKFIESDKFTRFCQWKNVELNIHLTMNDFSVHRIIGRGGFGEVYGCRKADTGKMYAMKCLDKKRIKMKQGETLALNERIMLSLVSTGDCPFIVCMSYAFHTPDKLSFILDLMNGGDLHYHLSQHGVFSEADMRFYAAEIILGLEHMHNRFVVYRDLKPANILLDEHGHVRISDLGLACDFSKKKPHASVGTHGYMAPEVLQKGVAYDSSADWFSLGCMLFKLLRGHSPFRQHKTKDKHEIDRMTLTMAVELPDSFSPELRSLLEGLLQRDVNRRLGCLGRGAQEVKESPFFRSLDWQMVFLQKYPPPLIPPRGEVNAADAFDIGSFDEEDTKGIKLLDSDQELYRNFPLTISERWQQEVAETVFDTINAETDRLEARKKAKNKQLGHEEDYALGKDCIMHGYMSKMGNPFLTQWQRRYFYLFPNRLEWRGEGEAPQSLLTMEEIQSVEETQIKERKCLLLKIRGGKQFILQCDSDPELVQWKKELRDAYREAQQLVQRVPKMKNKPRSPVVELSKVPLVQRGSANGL
Sequence of UniProt P16257 (whole entry, looked up): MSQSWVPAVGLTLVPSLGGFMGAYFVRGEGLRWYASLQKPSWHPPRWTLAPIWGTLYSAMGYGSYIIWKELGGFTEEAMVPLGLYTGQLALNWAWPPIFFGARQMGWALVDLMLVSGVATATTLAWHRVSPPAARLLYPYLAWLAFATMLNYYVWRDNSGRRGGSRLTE

Series 1 — SMILES: Cc1ccc(S(=O)(=O)/C=C/C#N)cc1; observed: enzyme activity; action: inhibitor; concentration: 0.5 µM; baseline: control
| target | remaining activity |
| --- | --- |
| EPHA7 (Homo sapiens, UniProt Q15375) | 99.8% |
| CSF1R (Homo sapiens, UniProt P07333) | 93.6% |
| GSK3A (Homo sapiens, UniProt P49840) | 106% |
| EPHB2 (Homo sapiens, UniProt P29323) | 104% |
| NUAK1 (Homo sapiens, UniProt O60285) | 101% |
| SRPK3 (Homo sapiens, UniProt Q9UPE1) | 104% |
| MYLK (Homo sapiens, UniProt Q15746) | 93.9% |
| PRKCE (Homo sapiens, UniProt Q02156) | 106% |
| SGK1 (Homo sapiens, UniProt O00141) | 98.7% |
| GRK2 (Homo sapiens, UniProt P25098) | 102% |
| PAK2 (Homo sapiens, UniProt Q13177) | 102% |
| FLT3 (Homo sapiens, UniProt P36888) | 100% |
| GRK6 (Homo sapiens, UniProt P43250) | 112% |
| BMX (Homo sapiens, UniProt P51813) | 105% |
| CSK (Homo sapiens, UniProt P41240) | 97.2% |
| FGFR4 (Homo sapiens, UniProt P22455) | 94.3% |
| PRKCG (Homo sapiens, UniProt P05129) | 92.9% |
| RPS6KA1 (Homo sapiens, UniProt Q15418) | 91.6% |
| Aurora kinase C (AURKC, Homo sapiens, UniProt Q9UQB9) | 97.1% |
| RPS6KB1 (Homo sapiens, UniProt P23443) | 105% |

Series 2 — cell line: mouse MPNST tumor cells; method: high-content immunofluorescence imaging; measured: nuclear SOX9; concentration: 10 µM; time: 12 h; setting: mean of 2 replicates; baseline: DMSO control; direction: higher = more nuclear SOX9
| SMILES | nuclear SOX9 intensity |
| --- | --- |
| CC(=Nc1ccccc1N)c1c(C)cc(=O)n(O)c1O | 99.2 % of DMSO |
| CCc1ccc(/C=C2/SC(=S)NC2=O)cc1 | 100 % of DMSO |
| Cc1cccc(NC(=O)CN2CCC(c3ccccn3)CC2)c1 | 97 % of DMSO |
| Cc1cc2c(cc1C1(c3ccc(C(=O)O)cn3)CC1)C(C)(C)CCC2(C)C | 93.8 % of DMSO |
| COc1c(C)c2c(c(O)c1C/C=C(\C)CCC(=O)O)C(=O)OC2 | 94.6 % of DMSO |
| C[C@H](NC[C@H](O)CP(=O)(O)CC1CCCCC1)c1ccc(Cl)c(Cl)c1 | 96.9 % of DMSO |
| N[C@@H](CCNCc1ccc(Cl)cc1)C(=O)N1CCCCC1 | 98.6 % of DMSO |
| Cc1ccc2c(=O)c3cccc(CC(=O)O)c3oc2c1C | 96.4 % of DMSO |
| N=C(N)NCCN1CCCCCCC1 | 99.5 % of DMSO |
| C[C@@H](CN1CCC(Cc2ccccc2)CC1)[C@@H](O)c1ccc(O)cc1 | 103 % of DMSO |
| Nc1nc2c(cnn2CCc2ccccc2)c2nc(-c3ccco3)nn12 | 137 % of DMSO |
| Cc1cccc(C)c1OCC(=O)N[C@@H](Cc1ccccc1)[C@@H](O)C[C@H](Cc1ccccc1)NC(=O)[C@H](C(C)C)N1CCCNC1=O | 100 % of DMSO |
| Nc1ncnc2c1ncn2C1OC(C(=O)N2CCN(CC(=O)Nc3cccc4c3CNC4=O)CC2)C(O)C1O (centres unmarked) | 121 % of DMSO |

Series 3 — method: Phase 2a trial; species: idiopathic pulmonary fibrosis patients
Structure (SMILES): CC(C)n1cnc(-c2ccc(F)cc2)c1-c1ncc(C(=O)Nc2ccc(N3CCN(C)CC3)cc2)[nH]1
| measured | route | dose | setting | patients with adverse events [%] |
| --- | --- | --- | --- | --- |
| back pain |  | dose not given | grade 5 maximum intensity, all arms | 0 |
| respiratory tract infection |  | 30 mg once daily | grade 2 maximum intensity | 0 |
| vision blurred |  | 60 mg once daily | grade 3 maximum intensity | 0 |
| muscular weakness |  | 60 mg once daily | grade 4 maximum intensity | 0 |
| tri-iodothyronine increased |  | 60 mg once daily | grade 4 maximum intensity | 0 |
| chest discomfort |  | dose not given | grade 3 maximum intensity, all arms | 0 |
| vision blurred |  | 60 mg once daily | grade 2 maximum intensity | 0 |
| back pain |  | 30 mg once daily | grade 4 maximum intensity | 0 |
| gamma-glutamyltransferase increased |  | 60 mg once daily | grade 3 maximum intensity | 0 |
| reticulocyte count increased |  | dose not given | grade 4 maximum intensity, all arms | 0 |
| infections and infestations |  | 60 mg once daily | grade 5 maximum intensity | 0 |
| gamma-glutamyltransferase increased |  | dose not given | grade 3 maximum intensity, all arms | 0 |
| neutrophil count increased |  | 60 mg once daily | grade 1 maximum intensity | 0 |
| weight increased |  | 30 mg once daily | grade 2 maximum intensity | 0 |
| oral herpes | oral | 30 mg once daily | grade 2 maximum intensity | 0 |
| neutrophil count increased |  | 60 mg once daily | grade 4 maximum intensity | 0 |
| bile acids increased |  | dose not given | grade 3 maximum intensity, all arms | 0 |
| blood creatine phosphokinase increased |  | 30 mg once daily | grade 4 maximum intensity | 0 |
| tri-iodothyronine increased |  | dose not given | grade 5 maximum intensity, all arms | 0 |

Further values, each from its own experiment
| SMILES | target | observed | method | concentration | measurement | result |
| --- | --- | --- | --- | --- | --- | --- |
| CN(C)[C@H]1CCN(c2cc(-c3ccccc3)nc3ccnn23)C1 | Translocator protein (Tspo, Rattus norvegicus, UniProt P16257) | binding | radioligand binding | 10 µM | inhibition | -12.5% |

Excerpt of the above (series 3):
| measured | route | dose | setting | patients with adverse events [%] |
| --- | --- | --- | --- | --- |
| chest discomfort |  | dose not given | grade 3 maximum intensity, all arms | 0 |
| vision blurred |  | 60 mg once daily | grade 2 maximum intensity | 0 |
| back pain |  | 30 mg once daily | grade 4 maximum intensity | 0 |
| gamma-glutamyltransferase increased |  | 60 mg once daily | grade 3 maximum intensity | 0 |
| reticulocyte count increased |  | dose not given | grade 4 maximum intensity, all arms | 0 |
| infections and infestations |  | 60 mg once daily | grade 5 maximum intensity | 0 |
| gamma-glutamyltransferase increased |  | dose not given | grade 3 maximum intensity, all arms | 0 |
